{"data": "Assay results collected from several papers", "note": "Numbers after ± are the reported error."}
{"SMILES": "C=C(c1ncc(C(=O)O)cn1)c1cc2c(cc1C)C(C)(C)CCC2(C)C", "test system": "Sprague-Dawley rat, male, plasma", "conditions": "oral, 100 mg/kg, 24 h, sesame oil vehicle", "endpoint": "HDL level", "result": "37 ± 3.1 mg/dL"}
{"SMILES": "C[C@H](NC(=O)COC(=O)[C@H](C)NC(=O)CO)C(=O)O", "test system": "water", "conditions": "pH 4, 65 °C", "endpoint": "depolymerization half-life", "result": "5.63 h"}
{"SMILES": "Cc1ccc(-c2ccc(-c3cc4sccc4o3)cn2)nc1", "test": "TCSPC", "test system": "benzene", "endpoint": "fluorescence lifetime", "result": "0.85 ns"}
{"SMILES": "CC(=O)N[C@H](CC(=O)O)C(=O)N[C@H](Cc1c[nH]c2ccccc12)C(=O)N[C@H](Cc1ccccc1)C(=O)N[C@H](CCCCN)C(=O)N[C@H](C)C(=O)N[C@H](Cc1ccccc1)C(=O)N[C@H](Cc1ccc(O)cc1)C(=O)N[C@H](CC(=O)O)C(=O)N[C@H](CCCCN)C(=O)N[C@@H](C(=O)N[C@H](C)C(=O)N[C@H](CCC(=O)O)C(=O)N[C@H](CCCCN)C(=O)N[C@H](Cc1ccccc1)C(=O)N[C@H](CCCCN)C(=O)N[C@H](CCC(=O)O)C(=O)N[C@H](C)C(=O)N[C@H](Cc1ccccc1)C(N)=O)C(C)C", "test system": "statin-treated high-risk CHD men, plasma", "conditions": "oral, 100 mg daily, day 13, 0 to 8 h, mean, detected subjects only", "endpoint": "AUC(0-t)", "result": "8.33 ng·h/mL"}
{"SMILES": "CN(O)C(=O)CCC(=O)NCCCN(CCCCN(CCCNC(=O)CCC(=O)N(C)O)C(=O)CCC(=O)N(C)O)C(=O)CCC(=O)N(C)O.[89Zr]", "test system": "mouse, heart", "conditions": "4 h", "endpoint": "tracer uptake", "result": "0.02 %ID/g"}
{"SMILES": "COc1ccc2c(O)c(C(=O)Nc3ccc(CN)cc3)ccc2c1", "test system": "rat liver microsomes", "conditions": "1 µM, added: NADPH", "endpoint": "t1/2", "result": "0.883 h"}
{"SMILES": "COc1ccc(S(=O)(=O)N/N=C/c2ccc(C#N)cc2)cc1OC", "test system": "male Wistar rat liver microsomes", "conditions": "10 µM, 3 h, pH 7.4, added: NADPH", "endpoint": "compound consumed", "result": "~50%"}
{"SMILES": "COc1ccc(NC(=O)[C@H](CCCCN)NC(=O)c2cc(NC(=O)[C@H](CCCCN)NC(=O)c3cc(NC(=O)[C@H](CCCCN)NC(=O)c4cc(NC(=O)[C@@H](N)CCCCN)ccc4OC)ccc3OC)ccc2OC)cc1C(N)=O", "test": "ITC heats of dilution", "test system": "TBS", "conditions": "pH 7.4, 25 °C, hexamer to monomer", "endpoint": "enthalpy of dissociation", "result": "14.1 kcal/mol"}
{"SMILES": "Cn1c(=O)oc2ccc(-c3ccc(CC(C#N)NC(=O)C4CNCCCO4)c(F)c3)cc21 (stereo not drawn)", "test": "item: anaemia", "test system": "human", "conditions": "60 mg single dose, fasted", "endpoint": "subjects with TEAE", "result": "0%"}
{"SMILES": "c1ccc(COc2cc3nc(c2)CNCCNCCNC3)cc1", "test": "pH-potentiometric titration", "conditions": "298 K, I 0.15 M NaCl", "endpoint": "log K3 protonation constant", "result": 2.35}
{"SMILES": "Cc1cccc(O[C@H]2CCC[C@@H](C(C)CNCc3ccncc3)C2)c1 (relative stereo)", "test system": "female C57BL/6 mouse, plasma", "conditions": "intravenous, 3 mg/kg", "endpoint": "Cmax", "result": "775 ng/mL"}
{"SMILES": "CC(C)(Sc1cc[n+]([O-])cc1-c1ccc(C#N)c2ccccc12)C(=O)OC1OC(C(=O)O)C(O)C(O)C1O (stereo not drawn)", "test system": "plasma", "conditions": "oral, 15 mg, moderate renal impairment, fasted", "endpoint": "terminal half-life", "result": "23.2 h"}
{"SMILES": "COC(=O)C(c1ccccc1Cl)N1CCC(SCC(=O)c2cccc(OC)c2)C(=CC(=O)O)C1 (mixture of isomers)", "test": "HPLC-MS/MS", "test system": "feline citrate plasma", "conditions": "100 ng/mL, 48 h, -80 °C, storage stability", "endpoint": "deviation from nominal", "result": "10%"}
{"SMILES": "O=C([O-])CN1CCN(CC(=O)[O-])CCN(CC(=O)NCC2CCC(C(=O)NC(Cc3ccc4ccccc4c3)C(=O)NCCCCC(NC(=O)NC(CCC(=O)O)C(=O)O)C(=O)O)CC2)CCN(CC(=O)[O-])CC1.[44Sc+3] (stereo not drawn)", "test": "transmetallation stability", "conditions": "0.5 h, 37 °C, added: Mg2+ 10 mM", "endpoint": "intact complex", "result": "98.7 ± 0.5%"}
{"SMILES": "CCCC[C@@H]1NC(=O)[C@@H](NC(=O)[C@H](CCC(=O)O)NC(=O)CNC(=O)CN2CCN(CC(=O)O)CCN(CC(=O)O)CCN(CC(=O)O)CC2)CCCCNC(=O)C[C@@H](C(N)=O)NC(=O)[C@H](C(C)C)NC(=O)[C@@H]2CCCN2C(=O)[C@H](CCCNC(=N)N)NC(=O)CNC(=O)[C@H](Cc2c[nH]c3ccccc23)NC(=O)[C@H](CCCNC(=N)N)NC(=O)[C@@H](Cc2ccccc2)NC(=O)[C@H](Cc2c[nH]cn2)NC(=O)[C@H](CCC(=O)O)NC1=O [gallium-67 labelled]", "test system": "C57 mice with B16/F1 melanoma, kidneys", "conditions": "intravenous, 0.037 MBq, 24 h", "endpoint": "tissue uptake", "result": "20.9 ± 5.77 %ID/g"}
{"note": "Repeated from above:"}
{"SMILES": "Cc1ccc(-c2ccc(-c3cc4sccc4o3)cn2)nc1", "test": "TCSPC", "test system": "benzene", "endpoint": "fluorescence lifetime", "result": "0.85 ns"}
{"SMILES": "CC(=O)N[C@H](CC(=O)O)C(=O)N[C@H](Cc1c[nH]c2ccccc12)C(=O)N[C@H](Cc1ccccc1)C(=O)N[C@H](CCCCN)C(=O)N[C@H](C)C(=O)N[C@H](Cc1ccccc1)C(=O)N[C@H](Cc1ccc(O)cc1)C(=O)N[C@H](CC(=O)O)C(=O)N[C@H](CCCCN)C(=O)N[C@@H](C(=O)N[C@H](C)C(=O)N[C@H](CCC(=O)O)C(=O)N[C@H](CCCCN)C(=O)N[C@H](Cc1ccccc1)C(=O)N[C@H](CCCCN)C(=O)N[C@H](CCC(=O)O)C(=O)N[C@H](C)C(=O)N[C@H](Cc1ccccc1)C(N)=O)C(C)C", "test system": "statin-treated high-risk CHD men, plasma", "conditions": "oral, 100 mg daily, day 13, 0 to 8 h, mean, detected subjects only", "endpoint": "AUC(0-t)", "result": "8.33 ng·h/mL"}
